Measurements from different studies.
Protocols differ between the studies behind these lines. ± gives the spread as reported.
Method: steady-state kinetics
B1: enzyme A178R/D177A/M179H/P184R (Levilactobacillus brevis, UniProt Q03Q85); chain MKVTVVGCTHAGTFAIKQILAEHPDAEVTVYERNDVISFLSCGIALYLGGKVADPQGLFYSSPEELQKLGANVQMNHNVLAIDPDQKTVTVEDLTNHAQTTESYDKLVMTSGSWPIVPKIPGIDSDRVKLCKNWAHAQALIEDAKEAKRITVIGAGYIGAELAEAYSTTGHDVTLIARHARVMRKYFDADFTDVIEQDYRDHGVQLALGETVESFTDSATGLTIKTDKNSYETDLAILCIGFRPNTDLLKGKVDMAPNGAIITDDYMRSSNPDIFAAGDSAAVHYNPTHQNAYIPLATNAVRQGILVGKNLVKPTVKYMGTQSSSGLALYDRTIVSTGLTLAAAKQQGLNAEQVIVEDNYRPEFMPSTEPVLMSLVFDPDTHRILGGALMSKYDVSQSANTLSVCIQNENTIDDLAMVDMLFQPNFDRPFNYLNILAQAAQAKVAQSVNA
B2: TenA_E (Arabidopsis thaliana, UniProt Q9ASY9); chain MEKRGVIDTWIDKHRSIYTAATRHAFVVSIRDGSVDLSSFRTWLGQDYLFVRRFVPFVASVLIRACKDSGESSDMEVVLGGIASLNDEIEWFKREGSKWDVDFSTVVPQRANQEYGRFLEDLMSSEVKYPVIMTAFWAIEAVYQESFAHCLEDGNKTPVELTGACHRWGNDGFKQYCSSVKNIAERCLENASGEVLGEAEDVLVRVLELEVAFWEMSRGGQ
B3: CDO (Bacillus subtilis, UniProt O32085); chain MELYECIQDIFGGLKNPSVKDLATSLKQIPNAAKLSQPYIKEPDQYAYGRNAIYRNNELEIIVINIPPNKETTVHDHGQSIGCAMVLEGKLLNSIYRSTGEHAELSNSYFVHEGECLISTKGLIHKMSNPTSERMVSLHVYSPPLEDMTVFEEQKEVLENS
B4: enzyme (Mortierella alpina, UniProt U5Y6A8); chain MAPPHVVDEQVRRRIVVEDEIQSKKQFERNYVPMDFTIKEIRDAIPAHLFIRDTTKSILHVVKDLVTIAIVFYCATFIETLPSLALRVPAWITYWIIQGTVMVGPWILAHECGHGAFSDSKTINTIFGWVLHSALLVPYQAWAMSHSKHHKGTGSMSKDVVFIPATRSYKGLPPLEKPAAEEEVLEQEHHHHEESIFAETPIYTLGALFFVLTLGWPLYLIMNFSGHEAPHWVNHFQTVAPLYEPHQRKNIFYSNCGIVAMGSILTYLSMVFSPLTVFMYYGIPYLGVNAWIVCITYLQHTDPKVPHFRDNEWNFQRGAACTIDRSFGTIVNHLHHHIGDSHQCHHMFSQMPFYNAVEATKHLKAKLGKYYIFDDTPIAKALYRNWRECKFVEDEGDVVFYKH
B5: protein (Adiantum capillus-veneris, UniProt A0A4Y6I289); chain MTDAVENKQVEFGALEVEGIKFAPSVAALGSTKQLVLGGAGFRGLEISGNLVKFTAIGIYVDEAIIPHLSPKLHGKSIEELCNNELLFEEVLAAPFEKLVRVVFLLPLTGPQYSEKVVERMGLLPNPGIKEESTKQFLEIFKPENFPPRTSLICSFTEEALKVAFMKTDDFPEDADAVIEDKWLARAFLASIIGKDGVSPLAKLSFAERMSRCL
B6: TylM1 H123A (Streptomyces fradiae, UniProt P95748); chain MAHSSATAGPQADYSGEIAELYDLVHQGKGKDYHREAADLAALVRRHSPKAASLLDVACGTGMHLRHLADSFGTVEGLELSADMLAIARRRNPDAVLHHGDMRDFSLGRRFSAVTCMFSSIGALAGQAELDAALERFAAHVLPDGVVVVEPWWFPENFTPGYVAAGTVEAGGTTVTRVSHSSREGEATRIEVHYLVAGPDRGITHHEESHRITLFTREQYERAFTAAGLSVEFMPGGPSGRGLFTGLPGAKGETR
B7: enzyme G29Y (Thermobifida fusca, UniProt Q47RA9); chain MIMIMASKSSPHDLPDVSGLSIAVLGGTYDQGRGLARRFAMAGHEVILGSRSAERAQAVAAELGEGLPVRGMDNAGAAEAGDVVIVAVPWDGHRALLESLKDVLAGKIVVDCVNPLGFDKRGAYALPVEEGSAAEQAAAILPDSRVVAAFHHVSAVLLLDPEVEKVDLDVLVLGDDREATDVVRALAARIPGVRGVYGGRLRNAHQVEAFTANLISINRRYKAHAGIRITDI
B8: protein (Irpex lacteus, UniProt A0A510I1H7); chain QSQVWGQCGGIGWTGATTCVAGSVCTKSNDYYSQCIPGAAAPSSAPPASTPVSVPPSQPSGSSGGLANIPASKLTQFSNFGTNPNNVQMFVYKPKNVAANPPLIVASHYCSGTAQAYFTGSKFAQLAETYGYVVIFPSSPHSGTCWDVSSDETLMHDGGSDSLSIANAARFAISNWGVDPNRVFAVGTSSGAMMTSVLAGAYPDIFKAGIVDSGVAFGCFAVPGQPEDSWNSQCSEGQLVLTGQQWAQKVKNAFPGFTGTYPKMQVWHGTADTTLYPQNFFEEVKQWTTIFNYPSTPLSNVTQTNLGSNYHNATFGPNFQAILATGVGHTVPLFEQQYLQFLGIA
B9: protein (Actinidia chinensis, UniProt H9M5U5); chain MATAAGPIATNNSPQNSNAYRTPIAPSVPITHKWSIAEDLTCISNPSKHNNPQTGYRSFSDELYVKYEEKLEDVRKALREVEENPLEGLVMIDALQRLGIDYHFRGEIGAFLQKQQIISSTPDGYPEHGLYEVSTLFRFLRQEGHNVTADVFNNFKDKEGRFRSELSTDIRGLMSLYEASQLRIEGEDILDQAADFSSQLLGRWTKDPNHHEARLVSNTLTHPYHKSLATFMGQKLSYMNCKGPNWDGVDNLQELAKMDLTIVQSIHQKEVFQVSQWWKDTGLANELKLARNQPLKWYMWPMAALTDPRFSEERVELTKPISFIYIIDDIFDVYGTIEELTLFTDAVNRWELSAVEQLPDYMKVCFKALYDVTNEIAYKIYKKHGQNPIDSLQKTWASLCNAFLVEAKWFASGHLPNAEEYLKNGIISSGVHVVLAHMFFLLGDGITQESVDLVDDYPGISTSIATILRLSDDLGSAKDEDQDGYDGSYIECYMKEHKGSSVDSAREEVIRMISEAWKCLNKECLSPNPFSESFRIGSLNMARMIPMMYSYDDNHNLPILEEHMKAMIYNTSL
B10: protein F222G (Planktothrix agardhii, UniProt F5B6Z0); chain MIVNVIQKDRLKEQKLQFIRNHQQAFDVEPIYPLPLFEDFVTSIEGDCSLEASCKIESDKLIASRFLLFFEDKTQEWQKYLHQSLTFFGLVENRVGVKINYSLLQQFLGSSFDFSKVTVLSAGIDLRNNLAESSLKMHIRIKDYPEKLDKAFALSDGAADGNYLKDFVNLIGFDFYFNGKSEIEIYAEVQEDDFFKPEINNLVWQHFPKTALQPLKASSLFGTGLSKANNNPVLYYHLKNRQDLTNYFKLNDTAQRVHSFYQHQDILPYMWVGTAQKELEKTRIENIRLYYYKSFKMESN

| Molecule | substrate | setting | kcat/Km [M⁻¹ s⁻¹] |
| --- | --- | --- | --- |
| BaiA2 (Clostridium scindens, UniProt P19337) | C[C@H](CCC(=O)SCCNC(=O)CCNC(=O)[C@H](O)C(C)(C)COP(=O)(O)OP(=O)(O)OC[C@H]1O[C@@H](n2cnc3c(N)ncnc32)[C@H](O)[C@@H]1OP(=O)(O)O)[C@H]1CC[C@H]2[C@@H]3CC[C@@H]4CC(=O)CC[C@]4(C)[C@H]3C[C@H](O)[C@]12C | pH 8.7, 37 °C, with: NADH | 102000 |
| B1 (enzyme A178R/D177A/M179H/P184R) | NC(=O)C1=CN([C@@H]2O[C@H](COP(=O)(O)OP(=O)(O)OC[C@H]3O[C@@H](n4cnc5c(N)ncnc54)[C@H](OP(=O)(O)O)[C@@H]3O)[C@@H](O)[C@H]2O)C=CC1 | pH 7.5, 37 °C, per site | 8.2e+06 ± 1.6e+06 |
| B2 (TenA_E) | Cc1ncc(CN)c(N)n1 | pH 7.5, 30 °C, amino-HMP aminohydrolase activity, with: 450 mM glycine betaine | 0.08 |
| B3 (CDO) | N[C@@H](CS)C(=O)O | pH 6.1, 37 °C, with: O2, Fe(II) | 50 ± 20 |
| B4 (enzyme) | CCCCC/C=C\C/C=C\CCCCCCCC(=O)SCCNC(=O)CCNC(=O)[C@H](O)C(C)(C)COP(=O)(O)OP(=O)(O)OC[C@H]1O[C@@H](n2cnc3c(N)ncnc32)[C@H](O)[C@@H]1OP(=O)(O)O | pH 7.5, 28 °C | 11700 |
| enzyme (Leishmania major, UniProt E9AE57) | O=C(O)C[C@H](O)C(=O)O |  | 47000 ± 3000 |
| B5 (protein) | O=C(/C=C/c1ccc(O)cc1)c1ccc(O)cc1O |  | 6580 |
| B6 (TylM1 H123A) | Cc1cn([C@H]2C[C@H](O)[C@@H](COP(=O)(O)OP(=O)(O)O[C@H]3O[C@H](C)[C@@H](O)[C@H](N)[C@H]3O)O2)c(=O)[nH]c1=O | 25 °C, with: SAM | 69 ± 5 |
| sacB (Priestia megaterium, UniProt D5DC07) | OC[C@H]1O[C@@](CO)(O[C@H]2O[C@H](CO)[C@@H](O)[C@H](O)[C@H]2O)[C@@H](O)[C@@H]1O | pH 6.6 | 18300 |
| B7 (enzyme G29Y) | NC(=O)c1ccc[n+](CCO)c1 | pH 8, 25 °C | 4.5 ± 1 |
| B8 (protein) | CC(=O)Oc1ccc2c(C)cc(=O)oc2c1 | pH 6, 30 °C | 85500 |
| B9 (protein) | CC(C)=CCC/C(C)=C/CC/C(C)=C/CO[P@@](=O)(O)OP(=O)(O)O | pH 7.5, room temperature, labelled compound, with: MgCl2 20 mM | 300000 |
| B10 (protein F222G) | CC(C)=CCOP(=O)(O)OP(=O)(O)O | with: tri-Tyr peptide acceptor | 15.3 |
| protein (Zea mays, UniProt A0A2H4PMI3) | O=CCCCC(=O)O | pH 7.5, 30 °C, substrate inhibition, with: NAD+ 3.0 mM | 23000 ± 4000 |
| enzyme (Actinoalloteichus caeruleus, UniProt M1F4W9) | CSc1c(O)cc(-c2ccccn2)nc1C(=O)N[C@@H](CC(C)C)C(=O)O | pH 8, 30 °C | 900 |
| enzyme (Helicobacter pylori, UniProt O24890) | [H]/N=C(/N)N[C@H]1[C@H](O)[C@@H](O)[C@H](O[C@@H]2O[C@@H](C)[C@](O)(C=O)[C@H]2O[C@@H]2O[C@@H](CO)[C@H](O)[C@@H](O)[C@@H]2NC)[C@@H](N/C(N)=N\[H])[C@@H]1O | pH 8, 37 °C | < 0.0377 |
| Tat (Mus musculus, UniProt Q8QZR1) | N[C@@H](Cc1ccccc1)C(=O)O | pH 7, 38 °C, 100 mM phosphate, with: 10 mM KGA; PLP | 1330 |
